Assay results from different studies.
Each line is one published result; not all experiments were run side by side. Several values in a cell are separate wells, animals, samples, runs or records. Numbers after ± are the reported error.

SMILES | target | assay | system | setting | scale | quantity | value
C=C(C)Cn1c(SCC(=O)c2cccs2)nc2sc3c(c2c1=O)CCOC3 | Smoothened | Gli luciferase reporter, agonist | TM3-Gli-Luc | added: SAG 20 nM | – | EC50 | > 20 µM
Nc1nc2c(nc(Br)n2[C@@H]2O[C@@H]3COP(=O)(O)O[C@H]3[C@H]2O)c(=O)[nH]1 | anti-cAMP antibody | binding, cAMP EIA, acetylated | – | – | – | EC50 | > 10 µM
O=S(=O)(NCCNC/C=C/c1ccc(Br)cc1)c1cccc2cnccc12 | PKA | inhibitor | mouse zygotes | 20 µM, injection, hCG, 48 h post, early embryonic development | – | embryos at morula stage | 0%
C[N+](C)(C)CCCn1c(=O)c2ccc3c(=O)n(CCC[N+](C)(C)C)c(=O)c4c5[nH]c6ccccc6[nH]c5c(c1=O)c2c34.[I-].[I-] | HIV-1 LTR-IV G-quadruplex | FRET melting | – | 0.25 µM, K+ 100 mM | – | ΔTm | 16 ± 1.7 °C
C=C(C)Cn1c(SCC(=O)c2cccs2)nc2sc3ccccc3c2c1=O | Smoothened | Gli luciferase reporter, agonist | TM3-Gli-Luc | added: SAG 20 nM | – | EC50 | > 20 µM
CCCCCCOC(=O)[C@]1(O)C[C@@H]2O[C@@]1(C)n1c3ccccc3c3c4c(c5c6ccccc6n2c5c31)C(=O)NC4 | RXFP1 S704A | – | RXFP1 S704A-expressing cells | 1 µM, 30 min, PKA inhibited | – | cAMP response | no effect
CC(C)C[C@@H]1NC(=O)[C@H](C(C)C)NC(=O)CNC(=O)[C@H](CC(N)=O)NC(=O)[C@@H]2CCCN2C(=O)[C@H](Cc2ccc(O)cc2)NC(=O)[C@H](CCCNC(=N)N)NC(=O)[C@H](Cc2ccccc2)NC(=O)[C@@H](NC(=O)[C@H](CCCCN)NC(=O)[C@@H]2CCCN2C(=O)[C@H](C)NC(=O)[C@H](C)NC(=O)[C@@H](N)Cc2ccc(O)cc2)CSSC[C@@H](C(=O)N[C@H](C(N)=O)[C@@H](C)O)NC(=O)[C@H](C)NC1=O | fucoidan | binding, isothermal titration calorimetry | – | pH 7.0, 25 °C | – | -ΔG | 8.88 kcal/mol
c1coc(-c2n[nH]cc2-c2ccnc3ccccc23)c1 | HRK1 (Candida albicans) | kinase binding, MIB/MS competition | Candida albicans lysate | 10 µM | baseline: DMSO | log2 fold change | -0.11
C[n+]1cccc2cc(C=NNC(=O)c3ccc4ccc5ccc(C(=O)NN=Cc6ccc7c(ccc[n+]7C)c6)nc5c4n3)ccc21.[I-].[I-] | telomeric antiparallel G-quadruplex DNA | UV melting | – | 3 µM, 10 mM potassium, added: DNA 3 µM | – | delta Tm | 0.5 °C
CCCCCCC(C(C)O)n1cnc2c(N)ncnc21 (stereo not drawn) | anti-cAMP antibody | binding, cAMP EIA, acetylated | – | – | – | EC50 | > 1000 µM
CC(=O)C1=C(C)N(c2cccc(C(F)(F)F)c2)C(=O)N[C@@H]1c1ccc(C#N)nc1 | chymotrypsin | – | – | – | – | IC50 | > 30 µM
CCCCCCCC(=O)OC[C@H](COP(=O)(O)O[C@@H]1[C@H](O)[C@H](O)[C@@H](OP(=O)(O)O)[C@H](OP(=O)(O)O)[C@H]1O)OC(=O)CCCCCCC | Kv7.2/Kv7.3(EEE) mutant channel | channel open probability, activator, fitted PIP2 binding model | – | model 4, K3 constrained | baseline: channel without bound PIP2 | efficacy factor E1 | 1.07
CCOc1ccc(C(C)(CC(=O)O)C(=O)O)cc1 (stereo not drawn) | human AA3 | – | – | 20 µM | – | inhibition | inhibited
O=C(NN=Cc1ccc(C[n+]2ccccc2)cc1)c1ccc2ccc3ccc(C(=O)NN=Cc4ccc(C[n+]5ccccc5)cc4)nc3c2n1.[Br-].[Br-] | MYC promoter parallel G-quadruplex DNA | UV melting | – | 3 µM, 10 mM potassium, added: DNA 3 µM | – | delta Tm | 4.4 °C
[H]/N=C(/N)N[C@H]1[C@H](O)[C@@H](O)[C@H](O[C@@H]2O[C@@H](C)[C@](O)(C=O)[C@H]2O[C@@H]2O[C@@H](CO)[C@H](O)[C@@H](O)[C@@H]2NC)[C@@H](N/C(N)=N\[H])[C@@H]1O | FLAG-tagged de novo protein S23 | small-molecule microarray screen | – | concentration not given | – | binding | no binding
CC(Nc1nc(N2CCCC2)nc2ccccc12)c1ccccc1 (stereo not drawn) | importin α/β1 | cMyc nuclear import, high content imaging | HeLa Kyoto reporter | 31.65 µM, 2 h | – | cells with nuclear reporter | 98.7% and 95.6%
Oc1ccccc1-c1n[nH]cc1-c1ccnc2ccccc12 | CDC5 (Candida albicans) | kinase binding, MIB/MS competition | Candida albicans lysate | 10 µM | baseline: DMSO | log2 fold change | 0.09

SMILES | target | assay | system | setting | scale | quantity | value
C=C(C)Cn1c(SCC(=O)N2CCOCC2)nc2sc3c(c2c1=O)CCCC3 | Smoothened | Gli luciferase reporter, agonist | TM3-Gli-Luc | added: SAG 20 nM | – | EC50 | > 20 µM
CC(C)C[C@@H]1NC(=O)[C@H](C)NC(=O)CNC(=O)[C@H](CC(N)=O)NC(=O)[C@@H]2CCCN2C(=O)[C@H](Cc2ccc(O)cc2)NC(=O)[C@H](CCCNC(=N)N)NC(=O)[C@H](Cc2ccccc2)NC(=O)[C@@H](NC(=O)[C@H](CCCCN)NC(=O)[C@@H]2CCCN2C(=O)[C@H](CO)NC(=O)[C@H](C)NC(=O)[C@@H](N)Cc2ccc(O)cc2)CSSC[C@@H](C(=O)N[C@H](C(N)=O)[C@@H](C)O)NC(=O)[C@H](C)NC1=O | fucoidan | binding, isothermal titration calorimetry | – | pH 7.0, 25 °C | – | -ΔG | 8.34 kcal/mol
CC(=O)N(C)[C@H]1CCN(C(=O)c2cnc3c(c2)C[C@](C)(c2ccc(F)cc2)N3)C1 | vanin activity | LC-MS/MS | human, plasma | 60 mg, 4 h post-dose, median | baseline: baseline | pantetheine increase | 1350%
CC(C)c1noc2ncc(C(=O)c3ccccc3O)cc12 | Kv7.1 potassium channel human | ion current, inhibitor, whole-cell patch clamp | – | 10 µM | – | inhibition | 21.5% and 13.1% and 14.8% and 17% and 15.5%
CC(=O)N[C@H](C(=O)N1C[C@H](O)C[C@H]1C(=O)NCc1ccc(-c2scnc2C)cc1)C(C)(C)SCCCCCCNC(=O)C[C@@H]1N=C(c2ccc(Cl)cc2)c2c(sc(C)c2C)-n2c(C)nnc21 | AHNAK (human) | TMT proteomics | HeLa | 1 µM, 24 h | baseline: DMSO | relative protein abundance | 1.04
CN(C(=O)n1cnc(-c2ccc[n+]([O-])c2)c1)C1CCCCC1 | Ca2+-activated potassium channel | – | – | concentration not given | – | inhibition | 9.65%
C[C@H](CCC(=O)O)[C@H]1CC[C@H]2[C@@H]3CC[C@@H]4C[C@H](O)CC[C@]4(C)[C@H]3C[C@H](O)[C@]12C | FXR | reporter gene, agonist, SHP luciferase reporter | Caco-2 | – | – | EC50 | 0.0034 µM
N[C@@H](Cc1c[nH]c2ccccc12)C(=O)O | tryptophan indole-lyase Fusobacterium varium | substrate, biochemical | – | – | – | kcat/Km | 0.46 µM⁻¹ min⁻¹
CN(C)CCCn1c(=O)c2cc(Br)c3c(=O)n(CCCN(C)C)c(=O)c4c5[nH]c6ccc([N+](=O)[O-])cc6[nH]c5c(c1=O)c2c34 | HIV-1 LTR-IV G-quadruplex | FRET melting | – | 0.25 µM, K+ 100 mM | – | ΔTm | 5 ± 0.1 °C
FC(F)(F)CN1CC(n2cc(Oc3ccn4nc(Cl)cc4n3)cn2)C1 | ELOVL1 (human) | C26:0/C22:0 SM ratio reduction, mass spectrometry | patient fibroblasts | 72 h | – | EC50 | 0.052 µM
C[N+](C)(C)CCCn1c(=O)c2cc(Br)c3c(=O)n(CCC[N+](C)(C)C)c(=O)c4c5[nH]c6ccccc6[nH]c5c(c1=O)c2c34.[I-].[I-] | HIV-1 LTR-IV G-quadruplex | FRET melting | – | 0.25 µM, K+ 100 mM | – | ΔTm | 11.7 ± 1.2 °C
CC(C)C[C@H](N)C(=O)O | SAR11_1346 protein (Candidatus Pelagibacter sp.) | binding, competition isothermal titration calorimetry | – | added: serine 5 mM competitor | – | Ka | 4.48e+10 M⁻¹ and 3.48e+10 M⁻¹
CN(C)CCCn1c(=O)c2cc(Br)c3c(=O)n(CCCN(C)C)c(=O)c4c5[nH]c6ccc(C(=O)O)cc6[nH]c5c(c1=O)c2c34 | HIV-1 LTR-IV G-quadruplex | FRET melting | – | 0.25 µM, K+ 100 mM | – | ΔTm | 4.7 ± 0.6 °C
CCCCCNC(=N)N | voltage-gated sodium channel, squid | peak sodium current, blocker, voltage clamp, internal perfusion | Doryteuthis pealeii, giant axon | 8-10 °C, intact inactivation, +100 mV, internal | – | IC50 | ~500 µM
CN(C)CCCNc1cc2c(=O)n(CCCN(C)C)c(=O)c3c4[nH]c5ccccc5[nH]c4c4c(=O)n(CCCN(C)C)c(=O)c1c4c23 | HIV-1 LTR-IV G-quadruplex | FRET melting | – | 0.25 µM, K+ 100 mM | – | ΔTm | 3 ± 1 °C
CC[C@H](C)[C@H](NC(=O)[C@H](CC(=O)O)NC(=O)[C@H](CCC(=O)O)NC(=O)[C@@H](N)CC(N)=O)C(=O)N[C@@H](CC(=O)O)C(=O)N[C@@H](CCC(N)=O)C(=O)N[C@@H](CCSC)C(=O)N[C@@H](Cc1ccccc1)C(=O)N[C@@H](CO)C(=O)N[C@H](C(=O)N[C@@H](CC(C)C)C(=O)N[C@@H](CC(C)C)C(=O)NCC(=O)N[C@@H](CCC(=O)O)C(=O)N[C@@H](CCSC)C(=O)N[C@@H](CC(=O)O)C(=O)N[C@@H](CC(C)C)C(=O)N[C@@H](CC(C)C)C(=O)N[C@H](C(=O)N[C@@H](CCC(N)=O)C(=O)N[C@@H](CO)C(=O)O)[C@@H](C)O)[C@@H](C)O | integrin αIIbβ3 THD-W359A | integrin activation, PAC-1 binding flow cytometry | CHO-A5 expressing αIIbβ3 THD-W359A | up to 100 µM, 30 min, 37 °C | – | inhibition | no inhibition

A few entries again:
SMILES | target | assay | system | setting | scale | quantity | value
CC(C)C[C@@H]1NC(=O)[C@H](C(C)C)NC(=O)CNC(=O)[C@H](CC(N)=O)NC(=O)[C@@H]2CCCN2C(=O)[C@H](Cc2ccc(O)cc2)NC(=O)[C@H](CCCNC(=N)N)NC(=O)[C@H](Cc2ccccc2)NC(=O)[C@@H](NC(=O)[C@H](CCCCN)NC(=O)[C@@H]2CCCN2C(=O)[C@H](C)NC(=O)[C@H](C)NC(=O)[C@@H](N)Cc2ccc(O)cc2)CSSC[C@@H](C(=O)N[C@H](C(N)=O)[C@@H](C)O)NC(=O)[C@H](C)NC1=O | fucoidan | binding, isothermal titration calorimetry | – | pH 7.0, 25 °C | – | -ΔG | 8.88 kcal/mol
c1coc(-c2n[nH]cc2-c2ccnc3ccccc23)c1 | HRK1 (Candida albicans) | kinase binding, MIB/MS competition | Candida albicans lysate | 10 µM | baseline: DMSO | log2 fold change | -0.11
